{"data": "Results from different studies", "target": "Albumin (ALB, Bos taurus, UniProt P02769)", "note": "Numbers after ± are the reported error.", "sequence of UniProt P02769 (whole entry, looked up)": "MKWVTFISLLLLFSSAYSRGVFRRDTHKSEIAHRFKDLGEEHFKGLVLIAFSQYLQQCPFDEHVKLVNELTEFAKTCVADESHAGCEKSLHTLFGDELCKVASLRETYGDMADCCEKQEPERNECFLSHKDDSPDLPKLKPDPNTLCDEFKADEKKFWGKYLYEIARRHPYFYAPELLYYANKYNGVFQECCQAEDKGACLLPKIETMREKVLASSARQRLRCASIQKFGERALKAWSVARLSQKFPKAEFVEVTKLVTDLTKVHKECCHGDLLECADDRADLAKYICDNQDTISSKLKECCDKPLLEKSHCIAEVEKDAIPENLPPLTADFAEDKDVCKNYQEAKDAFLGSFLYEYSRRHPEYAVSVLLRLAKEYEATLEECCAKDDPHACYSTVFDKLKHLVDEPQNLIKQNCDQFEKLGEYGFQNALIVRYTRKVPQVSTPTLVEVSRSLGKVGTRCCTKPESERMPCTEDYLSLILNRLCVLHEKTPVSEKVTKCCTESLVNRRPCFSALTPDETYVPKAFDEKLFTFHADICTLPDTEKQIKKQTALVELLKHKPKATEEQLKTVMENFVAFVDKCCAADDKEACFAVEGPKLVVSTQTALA"}
{"SMILES": "CC1=[N+]2N=C(c3ccccc3)[O][Pd-2]2([Cl])[O+]=C2Oc3ccccc3C=C21 (centres unmarked)", "test": "fluorescence quenching", "conditions": "concentration not given", "endpoint": "number of binding sites", "value": 1.61}
{"SMILES": "CCCCCCCCCCCCCCCC(=O)Nc1ccccc1SSc1ccccc1NC(=O)CCCCCCCCCCCCCCC", "test": "binding, van't Hoff", "conditions": "concentration not given, 298-313 K", "endpoint": "entropy change", "value": "-272 J/mol/K"}
{"SMILES": "CN(C)c1ccc(/N=N/c2ccc(S(=O)(=O)O)cc2)cc1", "conditions": "concentration not given", "endpoint": "number of specific binding sites", "value": 3}
{"SMILES": "CC(=O)[O-].O.O.[O-]c1ccc(Br)cc1C=NCCN1CCOCC1.[Zn+2]", "test": "UV absorption titration", "endpoint": "Gibbs free energy change", "value": "-5.92 kcal/mol"}
{"SMILES": "Oc1ccc2c(c1)[O][Pt-2]1([Cl])[N+](=C2)CC[NH+]1c1ccccc1 (centres unmarked)", "test": "binding to BSA", "endpoint": "binding free energy", "value": "-8.44 kcal/mol"}
{"SMILES": "CN(C)C(=S)N(C)N=Cc1ccccc1SSc1ccccc1C=NN(C)C(=S)N(C)C", "test": "adduct formation, optical absorption spectra", "conditions": "with: BSA 40 µM", "endpoint": "reaction completion time", "value": "≤ 0.5 h"}
{"SMILES": "COC(=O)c1cnc(-c2cnccn2)cc1C(=O)OC.COC(=O)c1cnc(-c2cnccn2)cc1C(=O)OC.[Cl-].[Cl-].[Cl-].[Cl-].[Cu+2].[Cu+2]", "test": "fluorescence quenching", "endpoint": "binding constant", "value": "6.03e+06 M⁻¹"}
{"SMILES": "O=C(O[C@@H]1Cc2c(O)cc(O)cc2O[C@@H]1c1cc(O)c(O)c(O)c1)c1cc(O)c(O)c(O)c1", "test": "binding, circular dichroism", "conditions": "200 µM, pH 7.4, at 320 nm, with: BSA 30 µM", "endpoint": "induced CD amplitude", "value": "~-0.4 mdeg"}
{"SMILES": "C#CC(=O)Nc1ccc(-c2c([Si](C)(C)C)c3ccccc3c3ccc4ccccc4[n+]23)cc1", "test": "LC-MS", "conditions": "16 h, pH 7.4, 25 °C, covalent modification of Cys34", "endpoint": "conversion", "value": "63%"}
{"SMILES": "CCCCCCCCCCCC(=O)Nc1ccccc1SSc1ccccc1NC(=O)CCCCCCCCCCC", "test": "binding, van't Hoff", "conditions": "concentration not given, 298-313 K", "endpoint": "entropy change", "value": "-2000 J/mol/K"}
{"SMILES": "CCNc1cc2c(cc1C)C1(c3cc(C)c(NCC)cc3O2)c2ccccc2C(=O)N1N=Cc1c[c-]c(-c2ccccn2)cc1.Cc1c(C)c(-c2ccc(-c3ccccc3)cc2)[c-](C)c1C.[Cl-].[Ir+3]", "test": "fluorescence quenching", "test system": "bovine serum albumin", "conditions": "concentration not given, 298 K", "endpoint": "number of binding sites", "value": 0.885}
{"SMILES": "CCN(CC)c1ccc2c(c1)[O][Pt-2]1([Cl])[N+](=C2)CC[NH+]1c1ccccc1 (centres unmarked)", "test": "binding to BSA", "endpoint": "binding free energy", "value": "-7.74 kcal/mol"}
{"SMILES": "O=C([O-])CN1CCN(CC(=O)[O-])CCN(C(CCC(=O)NC(Cc2c[nH]c3ccc(O)cc23)C(=O)NCCc2c[nH]c3ccc(O)cc23)C(=O)O)CCN(CC(=O)[O-])CC1.[Gd+3] (centres unmarked)", "test system": "BSA", "how to read": "reference: MPO-Gd, after activation", "endpoint": "protein binding", "value": "~1.5 fold"}
{"SMILES": "Cc1ccc(C(C)C)cc1.O=C([N-]c1nc2ccccc2[nH]1)c1cnccn1.[Cl-].[Ru+2]", "test": "tryptophan fluorescence quenching", "conditions": "concentration not given", "endpoint": "number of binding sites", "value": 0.83}
{"SMILES": "O=[N][Fe]1([N]=O)[S](CCO)[Fe]([N]=O)([N]=O)[S]1CCO", "test": "binding, EPR spin quantitation", "conditions": "1:2 stoichiometry assumed", "endpoint": "apparent equilibrium constant", "value": "77.4 M⁻¹"}
{"SMILES": "CCCCCCCCCCCCCC(=O)Nc1ccccc1SSc1ccccc1NC(=O)CCCCCCCCCCCCC", "test": "binding, van't Hoff", "conditions": "concentration not given, 298-313 K", "endpoint": "entropy change", "value": "-174 J/mol/K"}
{"SMILES": "Cc1ccc2ccc3ccc(C)nc3c2n1.Cc1ccc2ccc3ccc(C)nc3c2n1.O.[Cl-].[Cl-].[Cl-].[Yb+3]", "test": "fluorescence quenching", "conditions": "295 K", "endpoint": "ΔG°", "value": "-7.923 ± 0.00478 kcal/mol"}
{"SMILES": "Cc1ccc(C(C)C)cc1.[Cl-].[Cl][Ru+].[Ru+].c1ccc(-c2cn(CCCCOc3ccccc3-c3nc4ccccc4s3)nn2)nc1", "test": "Scatchard plot", "conditions": "concentration not given", "endpoint": "number of binding sites", "value": 0.8}
{"SMILES": "O=C([O-])CN(CCN(CC(=O)[O-])CC(=O)NCCc1c[nH]c2ccc(O)cc12)CCN(CC(=O)[O-])CC(=O)NCCc1c[nH]c2ccc(O)cc12.[Gd+3]", "test": "binding", "conditions": "concentration not given, 1 h, 40 °C, with: BSA, MPO, glucose oxidase, glucose", "endpoint": "T1 shortening", "value": "63%"}
{"SMILES": "C#CC(=O)c1ccc(-c2c([Si](C)(C)C)c3ccccc3c3ccc4ccccc4[n+]23)cc1", "test": "LC-MS", "conditions": "16 h, pH 7.4, 25 °C, covalent modification of Cys34", "endpoint": "conversion", "value": "80%"}
{"note": "Some of these lines once more:"}
{"SMILES": "CCCCCCCCCCCC(=O)Nc1ccccc1SSc1ccccc1NC(=O)CCCCCCCCCCC", "test": "binding, van't Hoff", "conditions": "concentration not given, 298-313 K", "endpoint": "entropy change", "value": "-2000 J/mol/K"}
{"SMILES": "CCNc1cc2c(cc1C)C1(c3cc(C)c(NCC)cc3O2)c2ccccc2C(=O)N1N=Cc1c[c-]c(-c2ccccn2)cc1.Cc1c(C)c(-c2ccc(-c3ccccc3)cc2)[c-](C)c1C.[Cl-].[Ir+3]", "test": "fluorescence quenching", "test system": "bovine serum albumin", "conditions": "concentration not given, 298 K", "endpoint": "number of binding sites", "value": 0.885}
{"SMILES": "CCN(CC)c1ccc2c(c1)[O][Pt-2]1([Cl])[N+](=C2)CC[NH+]1c1ccccc1 (centres unmarked)", "test": "binding to BSA", "endpoint": "binding free energy", "value": "-7.74 kcal/mol"}
